# Published values of several laboratories.
# Each numbered part is a random draw from the data of one study; scales do not carry over between parts. Positions count from the first letter of the parent shown.

# Series 1 — observed: binding; method: phage display NGS; form: peptide; reference: input library
# Target: UDP-N-acetylglucosamine--peptide N-acetylglucosaminyltransferase 110 kDa subunit (OGT, Homo sapiens, UniProt O15294)
# UniProt O15294, sequence (whole entry, looked up): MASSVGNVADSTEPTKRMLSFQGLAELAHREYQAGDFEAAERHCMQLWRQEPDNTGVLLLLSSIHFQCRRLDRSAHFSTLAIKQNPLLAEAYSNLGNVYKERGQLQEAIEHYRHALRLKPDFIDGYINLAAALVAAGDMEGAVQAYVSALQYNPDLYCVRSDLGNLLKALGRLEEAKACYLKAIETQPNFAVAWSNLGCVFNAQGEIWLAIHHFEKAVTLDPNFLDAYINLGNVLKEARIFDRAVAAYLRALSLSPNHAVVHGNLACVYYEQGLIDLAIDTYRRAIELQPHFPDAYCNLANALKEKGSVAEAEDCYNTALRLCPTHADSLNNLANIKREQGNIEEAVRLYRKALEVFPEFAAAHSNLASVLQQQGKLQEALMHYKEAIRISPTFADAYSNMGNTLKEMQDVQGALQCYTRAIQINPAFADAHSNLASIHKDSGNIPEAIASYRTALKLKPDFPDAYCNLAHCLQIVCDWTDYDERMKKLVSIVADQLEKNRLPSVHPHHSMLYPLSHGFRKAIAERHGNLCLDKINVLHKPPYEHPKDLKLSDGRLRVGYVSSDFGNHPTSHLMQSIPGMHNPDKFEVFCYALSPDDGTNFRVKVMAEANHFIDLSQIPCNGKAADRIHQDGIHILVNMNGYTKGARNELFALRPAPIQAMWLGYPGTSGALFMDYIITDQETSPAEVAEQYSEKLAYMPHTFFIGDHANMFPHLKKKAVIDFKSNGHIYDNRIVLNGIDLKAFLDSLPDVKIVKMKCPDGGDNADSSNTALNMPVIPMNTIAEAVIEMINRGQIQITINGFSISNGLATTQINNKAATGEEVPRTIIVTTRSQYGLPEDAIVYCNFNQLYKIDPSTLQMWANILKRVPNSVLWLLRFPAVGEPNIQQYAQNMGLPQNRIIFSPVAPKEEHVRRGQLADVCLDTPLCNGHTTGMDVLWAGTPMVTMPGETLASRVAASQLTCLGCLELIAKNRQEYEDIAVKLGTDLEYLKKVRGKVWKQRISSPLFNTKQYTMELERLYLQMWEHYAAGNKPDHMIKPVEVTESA
Molecule,minimum log2 enrichment ratio
MLETTPHHHQRPYAI,1.46
QQYFLPMYQIQFRNM,4.8
YTTHKHHNTTNFVAV,2.55
HEYPATHYHQQRKHY,1.6
HEFHRHHPPIDDLMR,1.84
SYVHSHAMHPYHSQH,1.75
HLMHHRLEPDHAHQV,3.82

# Series 2 — target: CCNB3, cyclin fold, Cln2 fusion (human); method: yeast growth competition, sequencing; sample: yeast; notes: strong parent motif; reference: not given; direction: higher = stronger binding; parent: viral docking peptide; KGVKRKLFAEDSS
Substitution,normalised enrichment score
V3W,0.554
A9N,2.54
V3H,0.617
V3E,0.287
S12Q,2.59
E10I,1.55
K4F,1.34
A9Y,2.75
F8Q,0.221
V3P,2.08
K4R,5.31
A9T,3.18
V3G,0.429
G2H,2.71
E10F,1.64
F8H,-0.262
G2S,3.47
A9H,2.2
K6F,0.269

# Series 3 — method: RNA Bind-n-Seq; form: RNA; sample: in vitro; concentration: 20 nM; notes: 6-mer, flanks averaged, single round; added: 150 mM KCl; reference: input library; direction: higher = stronger binding
# Target: TAR DNA-binding protein 43, full length, His tag (TARDBP, Homo sapiens, UniProt Q13148, residues 1-414)
Sequence,6-mer enrichment (R)
UGAAUG,1.37
GAACUU,0.652
GCGAUU,0.773
AGAUAU,0.624
UCGAUG,0.771
UGAUCU,0.573
UCAACG,0.689
UAGGAA,0.815

# Series 4 — target: inorganic phosphate, free oxyanion; method: microfluidic competitive inhibition; sample: in vitro, cell-free expressed; concentration: not given; direction: lower = stronger binding
# Notes: derived from inhibition constants, unchanged parent 615000 nM
# Parent: PafA, mature enzyme, eGFP fusion (Elizabethkingia meningoseptica, UniProt Q9KJX5); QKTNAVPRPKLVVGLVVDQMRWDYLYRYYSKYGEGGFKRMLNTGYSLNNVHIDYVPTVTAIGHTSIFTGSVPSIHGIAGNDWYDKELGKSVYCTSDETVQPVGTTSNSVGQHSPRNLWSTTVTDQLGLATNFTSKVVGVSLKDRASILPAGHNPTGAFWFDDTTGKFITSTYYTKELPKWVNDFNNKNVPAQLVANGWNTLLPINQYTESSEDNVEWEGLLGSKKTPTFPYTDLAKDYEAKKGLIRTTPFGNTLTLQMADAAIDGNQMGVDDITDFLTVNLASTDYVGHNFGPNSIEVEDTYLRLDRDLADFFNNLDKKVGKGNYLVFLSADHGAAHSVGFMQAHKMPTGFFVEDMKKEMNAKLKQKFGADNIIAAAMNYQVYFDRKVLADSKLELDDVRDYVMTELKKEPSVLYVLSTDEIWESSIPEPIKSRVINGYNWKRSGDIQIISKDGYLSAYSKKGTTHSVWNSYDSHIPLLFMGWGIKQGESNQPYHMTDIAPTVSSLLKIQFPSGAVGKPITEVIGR
Substitution,phosphate dissociation constant [µM]
W118G,431
P293V,691
K166V,638
F250V,605
I476G,393
K236G,532
S170V,189
